{"data": "Measurements collected from several papers", "JAK2": "Tyrosine-protein kinase JAK2 (JAK2, Homo sapiens, UniProt O60674)", "note": "Each line is one published result; not all experiments were run side by side. “And” joins repeats or separate records; there may be more than shown. ± gives the spread as reported.", "chain of UniProt O60674 (whole entry, looked up)": "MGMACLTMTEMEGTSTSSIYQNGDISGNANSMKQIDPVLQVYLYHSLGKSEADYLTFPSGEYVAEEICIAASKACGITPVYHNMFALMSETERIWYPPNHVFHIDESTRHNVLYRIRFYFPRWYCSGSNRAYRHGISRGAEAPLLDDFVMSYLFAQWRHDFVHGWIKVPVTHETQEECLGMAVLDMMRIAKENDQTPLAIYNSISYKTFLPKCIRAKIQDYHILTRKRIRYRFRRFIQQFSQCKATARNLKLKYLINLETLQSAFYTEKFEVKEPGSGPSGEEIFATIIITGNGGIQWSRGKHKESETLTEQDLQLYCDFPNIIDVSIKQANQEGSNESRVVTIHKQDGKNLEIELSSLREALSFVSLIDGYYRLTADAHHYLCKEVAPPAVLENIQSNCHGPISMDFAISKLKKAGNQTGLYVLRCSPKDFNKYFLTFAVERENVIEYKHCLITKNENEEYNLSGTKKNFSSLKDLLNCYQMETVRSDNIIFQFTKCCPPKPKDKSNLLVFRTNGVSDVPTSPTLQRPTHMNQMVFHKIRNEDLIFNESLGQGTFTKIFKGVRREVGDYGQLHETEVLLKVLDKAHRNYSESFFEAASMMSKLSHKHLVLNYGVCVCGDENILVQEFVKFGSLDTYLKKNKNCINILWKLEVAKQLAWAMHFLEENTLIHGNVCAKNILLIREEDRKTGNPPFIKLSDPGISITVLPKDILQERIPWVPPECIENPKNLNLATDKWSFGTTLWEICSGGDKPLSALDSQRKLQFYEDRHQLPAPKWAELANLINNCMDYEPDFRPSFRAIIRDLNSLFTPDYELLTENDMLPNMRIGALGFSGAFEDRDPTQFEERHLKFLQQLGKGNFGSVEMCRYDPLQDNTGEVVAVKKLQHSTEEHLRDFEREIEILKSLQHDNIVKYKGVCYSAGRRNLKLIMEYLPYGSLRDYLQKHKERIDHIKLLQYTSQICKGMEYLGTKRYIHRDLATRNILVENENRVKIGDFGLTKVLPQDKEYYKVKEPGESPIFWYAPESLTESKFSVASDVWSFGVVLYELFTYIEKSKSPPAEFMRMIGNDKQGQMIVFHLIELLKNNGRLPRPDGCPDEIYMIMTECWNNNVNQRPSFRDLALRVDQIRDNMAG", "chain of UniProt P34981 (whole entry, looked up)": "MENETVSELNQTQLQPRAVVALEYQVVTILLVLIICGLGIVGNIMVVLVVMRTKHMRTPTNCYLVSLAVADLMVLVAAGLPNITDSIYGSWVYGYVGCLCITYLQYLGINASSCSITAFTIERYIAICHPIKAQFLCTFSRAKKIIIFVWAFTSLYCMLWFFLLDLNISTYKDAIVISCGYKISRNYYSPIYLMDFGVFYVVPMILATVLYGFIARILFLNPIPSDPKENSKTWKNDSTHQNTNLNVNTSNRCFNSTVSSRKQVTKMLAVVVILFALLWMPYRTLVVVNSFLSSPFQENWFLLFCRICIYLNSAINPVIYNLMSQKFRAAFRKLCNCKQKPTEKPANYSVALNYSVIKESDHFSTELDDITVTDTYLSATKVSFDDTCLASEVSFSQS", "chain of UniProt Q9HCG7 (whole entry, looked up)": "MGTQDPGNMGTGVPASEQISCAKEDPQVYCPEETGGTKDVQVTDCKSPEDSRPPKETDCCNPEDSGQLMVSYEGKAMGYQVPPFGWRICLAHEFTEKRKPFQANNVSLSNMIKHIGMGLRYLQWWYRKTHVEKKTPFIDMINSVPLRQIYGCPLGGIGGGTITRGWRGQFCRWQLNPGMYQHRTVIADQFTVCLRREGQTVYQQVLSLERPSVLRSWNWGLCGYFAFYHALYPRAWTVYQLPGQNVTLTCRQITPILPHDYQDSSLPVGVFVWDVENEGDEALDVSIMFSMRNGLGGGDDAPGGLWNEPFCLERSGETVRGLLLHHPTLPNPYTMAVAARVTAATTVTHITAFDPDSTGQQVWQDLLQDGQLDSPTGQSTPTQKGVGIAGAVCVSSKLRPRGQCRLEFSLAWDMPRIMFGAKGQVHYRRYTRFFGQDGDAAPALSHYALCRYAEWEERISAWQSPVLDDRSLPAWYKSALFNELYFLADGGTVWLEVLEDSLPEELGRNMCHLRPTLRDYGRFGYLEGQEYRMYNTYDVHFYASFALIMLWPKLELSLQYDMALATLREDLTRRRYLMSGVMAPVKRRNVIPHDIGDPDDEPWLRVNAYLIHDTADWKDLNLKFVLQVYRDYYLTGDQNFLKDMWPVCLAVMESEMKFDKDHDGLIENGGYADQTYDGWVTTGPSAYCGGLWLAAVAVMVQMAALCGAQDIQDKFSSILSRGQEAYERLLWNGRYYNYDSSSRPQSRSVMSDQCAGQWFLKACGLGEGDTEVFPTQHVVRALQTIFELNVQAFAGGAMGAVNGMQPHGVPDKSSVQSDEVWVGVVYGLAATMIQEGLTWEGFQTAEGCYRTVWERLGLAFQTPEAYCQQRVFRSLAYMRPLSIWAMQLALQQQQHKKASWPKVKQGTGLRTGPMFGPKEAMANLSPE", "chain of UniProt Q96PF2 (whole entry, looked up)": "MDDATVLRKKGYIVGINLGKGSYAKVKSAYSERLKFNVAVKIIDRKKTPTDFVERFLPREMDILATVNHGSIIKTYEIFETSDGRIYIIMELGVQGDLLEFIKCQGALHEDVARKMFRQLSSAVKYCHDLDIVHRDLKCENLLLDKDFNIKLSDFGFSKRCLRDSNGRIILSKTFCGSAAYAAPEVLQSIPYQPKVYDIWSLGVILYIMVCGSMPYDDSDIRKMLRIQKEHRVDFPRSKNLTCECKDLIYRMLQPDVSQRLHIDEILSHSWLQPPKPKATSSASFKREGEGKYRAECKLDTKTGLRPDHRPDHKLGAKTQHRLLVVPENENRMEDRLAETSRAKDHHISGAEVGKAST", "chain of UniProt O14744 (whole entry, looked up)": "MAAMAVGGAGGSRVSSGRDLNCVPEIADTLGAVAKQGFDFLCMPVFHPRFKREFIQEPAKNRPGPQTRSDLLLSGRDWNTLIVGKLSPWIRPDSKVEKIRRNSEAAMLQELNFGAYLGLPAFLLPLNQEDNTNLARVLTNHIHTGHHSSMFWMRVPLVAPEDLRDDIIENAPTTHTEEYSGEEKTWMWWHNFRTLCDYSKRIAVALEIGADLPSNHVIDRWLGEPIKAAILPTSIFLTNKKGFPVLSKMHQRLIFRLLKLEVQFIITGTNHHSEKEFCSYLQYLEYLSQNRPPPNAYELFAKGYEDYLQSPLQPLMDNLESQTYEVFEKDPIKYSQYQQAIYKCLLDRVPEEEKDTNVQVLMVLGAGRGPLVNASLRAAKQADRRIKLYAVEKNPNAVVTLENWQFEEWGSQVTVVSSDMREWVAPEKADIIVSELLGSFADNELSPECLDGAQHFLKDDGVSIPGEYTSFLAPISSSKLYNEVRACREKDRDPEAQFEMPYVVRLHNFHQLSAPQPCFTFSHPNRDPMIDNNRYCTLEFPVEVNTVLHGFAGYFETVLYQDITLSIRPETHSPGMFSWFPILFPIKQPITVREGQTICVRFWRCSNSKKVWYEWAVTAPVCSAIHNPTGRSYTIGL", "chain of UniProt Q15109 (whole entry, looked up)": "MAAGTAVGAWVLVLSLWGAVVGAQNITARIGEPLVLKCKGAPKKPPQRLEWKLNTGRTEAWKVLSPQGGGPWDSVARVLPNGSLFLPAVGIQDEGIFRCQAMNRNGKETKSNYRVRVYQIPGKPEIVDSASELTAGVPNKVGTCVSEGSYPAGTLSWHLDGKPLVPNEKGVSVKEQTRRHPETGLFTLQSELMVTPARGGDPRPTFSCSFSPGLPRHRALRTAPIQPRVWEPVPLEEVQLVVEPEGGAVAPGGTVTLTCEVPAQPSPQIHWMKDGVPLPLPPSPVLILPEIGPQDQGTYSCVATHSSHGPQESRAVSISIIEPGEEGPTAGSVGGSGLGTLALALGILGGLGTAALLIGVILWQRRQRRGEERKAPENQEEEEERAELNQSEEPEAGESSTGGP", "chain of UniProt P30542 (whole entry, looked up)": "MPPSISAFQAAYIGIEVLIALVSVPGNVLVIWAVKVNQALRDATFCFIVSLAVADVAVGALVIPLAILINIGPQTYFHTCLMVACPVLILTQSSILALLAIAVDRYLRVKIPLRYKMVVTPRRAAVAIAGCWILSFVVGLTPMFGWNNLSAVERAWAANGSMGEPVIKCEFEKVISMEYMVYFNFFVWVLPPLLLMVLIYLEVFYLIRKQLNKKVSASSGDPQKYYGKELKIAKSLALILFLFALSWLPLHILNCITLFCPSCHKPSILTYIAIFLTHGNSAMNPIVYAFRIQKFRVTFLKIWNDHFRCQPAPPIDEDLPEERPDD", "chain of UniProt P54646 (whole entry, looked up)": "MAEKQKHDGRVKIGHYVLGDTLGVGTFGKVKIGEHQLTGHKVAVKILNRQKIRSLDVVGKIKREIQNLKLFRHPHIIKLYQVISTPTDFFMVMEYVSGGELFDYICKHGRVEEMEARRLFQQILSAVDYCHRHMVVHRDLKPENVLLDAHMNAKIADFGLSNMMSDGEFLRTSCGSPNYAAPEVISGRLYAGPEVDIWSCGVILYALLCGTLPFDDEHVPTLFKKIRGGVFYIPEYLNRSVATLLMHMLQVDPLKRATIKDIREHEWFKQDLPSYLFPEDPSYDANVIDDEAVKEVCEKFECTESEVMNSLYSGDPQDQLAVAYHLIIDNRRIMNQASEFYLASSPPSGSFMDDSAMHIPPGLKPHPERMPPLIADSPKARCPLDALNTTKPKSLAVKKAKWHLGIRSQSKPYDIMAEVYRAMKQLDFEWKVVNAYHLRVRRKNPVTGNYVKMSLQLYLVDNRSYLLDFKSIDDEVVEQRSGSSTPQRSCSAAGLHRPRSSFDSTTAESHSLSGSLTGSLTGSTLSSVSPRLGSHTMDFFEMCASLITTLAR", "chain of UniProt P18405 (whole entry, looked up)": "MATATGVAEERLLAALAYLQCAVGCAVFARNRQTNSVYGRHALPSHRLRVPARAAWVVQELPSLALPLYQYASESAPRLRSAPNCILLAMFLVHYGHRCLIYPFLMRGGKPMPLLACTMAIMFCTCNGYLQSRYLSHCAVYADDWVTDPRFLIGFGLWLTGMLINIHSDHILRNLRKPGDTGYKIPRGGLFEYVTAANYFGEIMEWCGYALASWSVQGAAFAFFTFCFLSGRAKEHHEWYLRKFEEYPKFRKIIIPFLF"}
{"Compound": "Cc1cnc2nc1Nc1cccc(c1)COCc1cc(ccc1OCCN1CCOCC1)N2", "target or system": "JAK2", "assay": "inhibitor, Z'-LYTE kinase", "setting": "1000 nM", "quantity": "inhibition", "result": "98.1% and 98.3% and 96.7%"}
{"Compound": "Cc1ccc(N(O)/N=N/c2ccc(S(=O)(=O)Nc3nccs3)cc2)cc1", "target or system": "α-glucosidase, rat intestine", "assay": "enzyme activity", "setting": "240 µg/mL, together with: 4-nitrophenyl α-D-glucopyranoside", "quantity": "inhibition", "result": "40 ± 0.04%"}
{"Compound": "Cc1nn(-c2cccc(N)c2)c(=O)c2cnc(Nc3ccc(N4CCNCC4)cc3)nc12", "target or system": "Dual specificity tyrosine-phosphorylation-regulated kinase 1B (DYRK1B, Homo sapiens, UniProt Q9Y463)", "assay": "kinase activity, inhibitor, SelectScreen kinase profiling", "quantity": "IC50", "result": "> 10 µM"}
{"Compound": "Cc1ncsc1-c1ccc(C(C)NC(=O)C2CC(O)CN2C(=O)C(NC(=O)CCCCCCCCCCN2CCCC(Nc3ncc(Cl)c(Nc4ccccc4S(=O)(=O)C(C)C)n3)C2)C(C)(C)C)cc1 (stereo not drawn)", "target or system": "22Rv1", "assay": "RNA-seq, item: ZNF324B mRNA", "setting": "concentration not given", "scale": "reference: DMSO", "quantity": "log2 fold change", "result": -2.38}
{"Compound": "CCn1cc(C(=O)O)c(=O)c2c(N)c(F)c(NC3CCCCC3)cc21", "target or system": "5'-AMP-activated protein kinase catalytic subunit alpha-2, with beta2 gamma1 (PRKAA2, Homo sapiens, UniProt P54646)", "assay": "kinase activity", "setting": "0.1 µM, together with: ATP at Km", "quantity": "inhibition", "result": "-8.3%"}
{"Compound": "Nc1ncc(-c2cc(-c3cnn(CC(F)(F)F)c3)ncc2F)nc1C(=O)NC1CNCC(F)C1 (stereo not drawn)", "target or system": "YANK3", "assay": "KINOMEscan", "setting": "1 µM", "scale": "reference: DMSO control", "quantity": "remaining binding", "result": "79%"}
{"Compound": "O=C(Nc1ccc(Cl)cc1)Nc1ccc(C2=NNC(c3ccc(NC(=O)Nc4ccc(Cl)cc4)cc3)C2)cc1 (stereo not drawn)", "target or system": "Advanced glycosylation end product-specific receptor (AGER, Homo sapiens, UniProt Q15109)", "setting": "100 µM", "quantity": "inhibition", "result": "94%"}
{"Compound": "OC[C@@H]1[C@@H](O)[C@H](O)[C@@H](O)CN1CCCCCOCC(COCCCCCN1C[C@H](O)[C@@H](O)[C@H](O)[C@H]1CO)C12CC3CC(CC(C3)C1)C2", "target or system": "Beta-glucosidase (GBA2, Homo sapiens, UniProt Q9HCG7)", "assay": "inhibitor, 4MU-β-D-glucopyranoside", "system": "HEK293T homogenates overexpressing GBA2", "scale": "reference: GBA1 IC50 over GBA2 IC50", "quantity": "selectivity ratio", "result": 48}
{"Compound": "C=CC(=O)Nc1cccc(-c2cnc3[nH]cc(C(=O)NC(C)(C)C)c3n2)c1", "target or system": "Testis-specific serine/threonine-protein kinase 2 (TSSK2, Homo sapiens, UniProt Q96PF2)", "assay": "kinase activity", "setting": "0.1 µM", "quantity": "inhibition", "result": "6%"}
{"Compound": "Brc1ccccc1-c1nnc(CSc2nnnn2-c2ccccc2)o1", "target or system": "Alpha-1B adrenergic receptor (ADRA1B, Homo sapiens, UniProt P35368)", "assay": "ligand displacement, radioligand", "setting": "10 µM", "quantity": "inhibition", "result": "19%"}
{"Compound": "O=C1c2sc(-c3ccc(N4CCC(CO)CC4)nc3F)nc2CCN1c1cccnc1", "target or system": "Adenosine receptor A1 (ADORA1, Homo sapiens, UniProt P30542)", "assay": "ligand displacement, radioligand", "setting": "1 µM", "quantity": "inhibition", "result": "-10%"}
{"Compound": "CN(C)C/C=C/C(=O)Nc1ccc2nc(NCCCCCN(C)C)nc(NCCCCCCN(C)C)c2c1", "target or system": "Protein arginine N-methyltransferase 5 (PRMT5, Homo sapiens, UniProt O14744)", "assay": "enzyme activity, inhibitor, radiometric", "setting": "50 µM", "quantity": "inhibition", "result": "11%"}
{"Compound": "O=C1c2sc(-c3ccc(N4CCC(F)C4)nc3F)nc2CCN1c1cccnc1 (stereo not drawn)", "target or system": "MT3 (ML-2) receptor", "assay": "radioligand binding", "setting": "1 µM, together with: agonist radioligand", "quantity": "inhibition", "result": "-33%"}
{"Compound": "C=C(NC(=O)c1csc(-c2nc3c(cc2O)-c2nc(cs2)C(=O)NC(C(C)O)C(=O)NC(=C(C)OC)c2nc(cs2)C(=O)NC2c4nc(cs4)C(=O)NC(COC(=O)c4c5c6c(cccc6n4O)COC(=O)C(OC4CC(C)(O)C(N(C)C)C(C)O4)C2OC5)c2nc-3cs2)n1)C(N)=O (stereo not drawn)", "system": "Sprague-Dawley rat, both sexes, plasma", "setting": "intravenous infusion, 2 mg/kg single dose", "quantity": "half-life", "result": "2.24 ± 0.42 h"}
{"Compound": "C[Si](C)(C)C[C@@H](CN)CC(=O)O", "target or system": "Thyrotropin-releasing hormone receptor (TRHR, Homo sapiens, UniProt P34981)", "assay": "ligand displacement, radioligand", "setting": "75 µM", "quantity": "inhibition", "result": "17%"}
{"Compound": "Cc1ccc(CNC(=O)[C@H](CCc2ccccc2)NC(=O)[C@H](CC(=O)NCC(C)(C)C)NC(=O)c2ccc(OCc3ccccc3)cc2)cc1", "target or system": "Cathepsin B (CTSB, Homo sapiens, UniProt P07858)", "assay": "enzyme activity, inhibitor", "setting": "100 µM", "quantity": "inhibition", "result": "-14%"}
{"Compound": "COC1CN([C@H]2CC[C@H]([C@@]3(C)Oc4c(Cl)cc(C(=O)NCc5c(SC)cc(C)[nH]c5=O)c(C)c4O3)CC2)C1", "assay": "RNA-seq, item: TCF7L2 mouse homolog", "system": "mouse, HT-1376 xenograft, whole blood", "setting": "dose not given", "scale": "reference: vehicle", "quantity": "log2 fold change", "result": 0.757}
{"Compound": "COC(=O)/C=C/c1ccc(O)c(OC)c1", "target or system": "3-oxo-5-alpha-steroid 4-dehydrogenase 1 (SRD5A1, Homo sapiens, UniProt P18405)", "assay": "enzyme activity in cells, inhibitor", "system": "HaCaT", "setting": "50 µM", "quantity": "inhibition", "result": "19.9%"}
{"Compound": "CC(=O)C12NC(C)(C)CC1(C)C(=O)C1=C2c2c(c3c4n2C(C)(C)CC2=C4C4(CC(C)(C)NC(C)(C4)C2=O)CC3(C)C)C(=O)C(C)(C)N1 (single isomer, unassigned; (-))", "target or system": "Potassium/sodium hyperpolarization-activated cyclic nucleotide-gated channel 1 (Homo sapiens, UniProt O60741)", "assay": "ion current, antagonist, whole-cell patch clamp", "system": "HEK293T", "setting": "10 µM", "quantity": "inhibition", "result": "-0.12 ± 0.04%"}
{"Compound": "Cc1cnc2nc1Nc1cccc(c1)COCCCCOCc1cc(ccc1OCCN1CCCC1)N2", "target or system": "JAK2", "assay": "inhibitor, Z'-LYTE kinase", "setting": "370.37 nM", "quantity": "inhibition", "result": "68.5% and 56.9% and 69.1%"}
{"Compound": "C=CC(=O)Nc1cccc(Cn2ncc3cnc(Nc4cnn(CCOC)c4)nc32)c1", "target or system": "YANK3 human", "assay": "binding, KINOMEscan", "setting": "100 nM", "scale": "lower = stronger binding", "quantity": "percent of control", "result": "100%"}
{"note": "Repeated from above:"}
{"Compound": "O=C1c2sc(-c3ccc(N4CCC(CO)CC4)nc3F)nc2CCN1c1cccnc1", "target or system": "Adenosine receptor A1 (ADORA1, Homo sapiens, UniProt P30542)", "assay": "ligand displacement, radioligand", "setting": "1 µM", "quantity": "inhibition", "result": "-10%"}
{"Compound": "CN(C)C/C=C/C(=O)Nc1ccc2nc(NCCCCCN(C)C)nc(NCCCCCCN(C)C)c2c1", "target or system": "Protein arginine N-methyltransferase 5 (PRMT5, Homo sapiens, UniProt O14744)", "assay": "enzyme activity, inhibitor, radiometric", "setting": "50 µM", "quantity": "inhibition", "result": "11%"}
